Measured values of several laboratories.
Protocols differ between the studies behind these lines. ± gives the spread as reported. Converted amounts (≈) assume the structure as drawn.

Structure (SMILES) | organism | test | system | conditions | how to read | endpoint | value
CC(C)[C@H](NC(=O)[C@H](Cc1c[nH]c2ccccc12)NC(=O)[C@H](Cc1c[nH]cn1)NC(=O)[C@H](CCCNC(=N)N)NC(=O)[C@H](CCCNC(=N)N)NC(=O)[C@H](Cc1c[nH]c2ccccc12)NC(=O)[C@H](Cc1c[nH]c2ccccc12)NC(=O)[C@H](Cc1c[nH]cn1)NC(=O)[C@H](Cc1c[nH]c2ccccc12)NC(=O)[C@H](CCCNC(=N)N)NC(=O)[C@@H](N)CCCCN)C(=O)N[C@H](C(=O)N[C@@H](Cc1c[nH]c2ccccc12)C(N)=O)C(C)C | Mycobacterium bovis | – | isoniazid-resistant mutant, broth with pyruvate | 48 h, 37 °C | – | MIC | 5 µM (≈ 10.1 µg/mL)
O=C(CCCC(=O)Nc1ccc(Br)cc1)N/N=C/c1c2ccccc2cc2ccccc12 | Bacillus anthracis | – | Sterne | – | – | MIC50 | 15 µM (≈ 7.33 µg/mL)
O=C(Nc1ccc([N+](=O)[O-])cc1)Nc1ccc(S(=O)(=O)Nc2ccc(Cl)c(Cl)c2)cc1 | Bacillus anthracis | – | Sterne, LB medium | – | – | MIC | 1.9 µM (≈ 0.915 µg/mL)
Nc1c(C(=O)Nc2ccc(F)cc2Cl)sc2nc(-c3ccc(F)cc3)ccc12 | Bacillus anthracis | – | Sterne | – | – | MIC50 | > 80 µM
Cc1cc(/C=C/C#N)cc(C)c1Oc1nc(NC2CCN(Cc3ccc(P(C)(C)=O)cc3)CC2)nc2ccsc12 | HIV-1 | – | MT-4, E138K | – | relative to: doravirine EC50 over cpd EC50 | EC50 fold change | ~8.74 fold
N=C(N)NCCC[C@H](NC(=O)[C@H](CCCNC(=N)N)NC(=O)[C@H](Cc1c[nH]c2ccccc12)NC(=O)[C@H](Cc1c[nH]c2ccccc12)NC(=O)[C@H](CCCCN)NC(=O)[C@H](Cc1c[nH]c2ccccc12)NC(=O)[C@H](Cc1c[nH]c2ccccc12)NC(=O)[C@H](CCCNC(=N)N)NC(=O)[C@@H](N)CCCCN)C(N)=O | Bacillus anthracis | – | 34F2 Sterne, LB medium | 24 h, 37 °C | – | MIC | 80 µM (≈ 119 µg/mL)
NC12CC3CC(CC(C3)C1)C2 | Influenza A virus | viral replication | MDCK, A/Swine/Iowa/13-0505/2010 (H3N2) | – | – | EC50 | < 1 µM
C[C@H](NP(=O)(Nc1ccn([C@H]2CS[C@@H](CO)O2)c(=O)n1)N[C@@H](C)C(=O)OCc1ccccc1)C(=O)OCc1ccccc1 | HIV-1 | viral replication | CCRF-CEM, IIIB | 4 d | – | EC50 | 0.28 ± 0.17 µM
CC[C@H](C)[C@H](NC(=O)[C@H](Cc1ccc(O)cc1)NC(=O)[C@H](CO)NC(=O)[C@H](CCC(=O)O)NC(=O)[C@H](CC(N)=O)NC(=O)[C@H](CC(C)C)NC(=O)[C@H](C)NC(=O)[C@H](CCCCN)NC(=O)[C@@H](NC(=O)[C@@H](NC(=O)[C@H](CCC(N)=O)NC(=O)[C@H](CCC(N)=O)NC(=O)[C@H](CC(C)C)NC(=O)[C@H](CO)NC(=O)[C@H](CC(C)C)NC(=O)[C@H](CCSC)NC(=O)[C@H](CCC(=O)O)NC(=O)[C@H](Cc1ccc(O)cc1)NC(=O)[C@@H](NC(=O)[C@H](CC(C)C)NC(=O)[C@H](CC(=O)O)NC(=O)[C@H](CC(C)C)NC(=O)[C@H](CC(C)C)NC(=O)[C@@H](NC(=O)[C@@H](NC(=O)[C@H](CC(N)=O)NC(=O)[C@@H](NC(=O)[C@H](CCC(N)=O)NC(=O)[C@@H](NC(=O)[C@H](CC(C)C)NC(=O)[C@@H](N)CO)[C@@H](C)O)[C@@H](C)CC)[C@@H](C)O)[C@@H](C)O)[C@@H](C)O)C(C)C)C(C)C)C(=O)N[C@@H](CC(=O)O)C(=O)N[C@@H](CC(C)C)C(=O)N[C@@H](CCCCN)C(=O)N[C@@H](CCC(=O)O)C(=O)N[C@@H](CC(C)C)C(=O)O | MERS-CoV | viral replication, CPE, MTT | HFL lung fibroblasts | – | – | IC50 | 13.9 µM
O=c1nc(NO)ccn1[C@@H]1O[C@H](CO)[C@@H](O)[C@H]1O | Influenza A virus | viral replication | MDCK, A/WSN/33-nanoLuc or A/California/09 | 1 and 2 µM, fixed-dose serial passaging | – | passages tolerated | > 10 passages
NC(=O)c1nc(F)c[nH]c1=O | Influenza A virus | plaque reduction | MDCK, GD/3 | concentration not given | – | antiviral activity | active
CSCC[C@@H]1NC(=O)[C@H](CC(C)C)NC(=O)[C@H](CCCNC(=N)N)NC(=O)[C@H](CO)NC(=O)[C@@H]2CSSC[C@@H]3NC(=O)[C@H](CO)NC(=O)CNC(=O)[C@H]([C@@H](C)O)NC(=O)[C@H](CSSC[C@H](N)C(=O)N[C@@H](CCCCN)C(=O)NCC(=O)N[C@@H](CCCCN)C(=O)NCC(=O)N[C@@H](C)C(=O)N[C@@H](CCCCN)C(=O)N2)NC(=O)[C@H](CSSC[C@@H](C(N)=O)NC(=O)[C@H](CCCCN)NC(=O)CNC(=O)[C@H](CO)NC(=O)[C@H](CCCNC(=N)N)NC3=O)NC(=O)[C@H](CC(=O)O)NC(=O)[C@H](Cc2ccc(O)cc2)NC1=O | Candida tropicalis | – | – | – | – | MIC | 39.8 µM (≈ 105 µg/mL)
CC(=O)N1C[C@@H](COP(=O)(N(C)C)N2C[C@@H](COP(=O)(N(C)C)N3C[C@@H](COP(=O)(N(C)C)N4C[C@@H](COP(=O)(N(C)C)N5C[C@@H](COP(=O)(N(C)C)N6C[C@@H](COP(=O)(N(C)C)N7C[C@@H](COP(=O)(N(C)C)N8C[C@@H](COP(=O)(N(C)C)N9C[C@@H](COP(=O)(N(C)C)N%10C[C@@H](COP(=O)(N(C)C)N%11C[C@@H](COP(=O)(N(C)C)N%12C[C@@H](COP(=O)(N(C)C)N%13C[C@@H](COP(=O)(N(C)C)N%14C[C@@H](COP(=O)(N(C)C)N%15C[C@@H](COP(=O)(N(C)C)N%16C[C@@H](COP(=O)(N(C)C)N%17C[C@@H](COP(=O)(N(C)C)N%18C[C@@H](COP(=O)(N(C)C)N%19C[C@@H](COP(=O)(N(C)C)N%20C[C@@H](COP(=O)(N(C)C)N%21C[C@@H](COP(=O)(N(C)C)N%22C[C@@H](COP(=O)(N(C)C)N%23C[C@@H](COP(=O)(N(C)C)N%24CCN(C(=O)CCCN%25C(=O)CC(SC[C@H](NC(=O)[C@H](CCCNC(=N)N)NC(=O)[C@H](CCCNC(=N)N)NC(=O)[C@H](CCCNC(=N)N)NC(=O)[C@H](CCCNC(=N)N)NC(=O)[C@H](Cc%26ccccc%26)NC(=O)[C@H](Cc%26ccccc%26)NC(=O)[C@H](CCCNC(=N)N)NC(=O)[C@H](CCCNC(=N)N)NC(=O)[C@H](CCCNC(=N)N)NC(=O)[C@H](CCCNC(=N)N)NC(=O)[C@@H](N)CCCNC(=N)N)C(N)=O)C%25=O)CC%24)O[C@@H](n%24cnc%25c(=O)[nH]c(N)nc%25%24)C%23)O[C@@H](n%23cc(C)c(=O)[nH]c%23=O)C%22)O[C@@H](n%22ccc(N)nc%22=O)C%21)O[C@@H](n%21cnc%22c(N)ncnc%22%21)C%20)O[C@@H](n%20cc(C)c(=O)[nH]c%20=O)C%19)O[C@@H](n%19ccc(N)nc%19=O)C%18)O[C@@H](n%18cc(C)c(=O)[nH]c%18=O)C%17)O[C@@H](n%17cc(C)c(=O)[nH]c%17=O)C%16)O[C@@H](n%16cnc%17c(=O)[nH]c(N)nc%17%16)C%15)O[C@@H](n%15ccc(N)nc%15=O)C%14)O[C@@H](n%14cnc%15c(=O)[nH]c(N)nc%15%14)C%13)O[C@@H](n%13ccc(N)nc%13=O)C%12)O[C@@H](n%12ccc(N)nc%12=O)C%11)O[C@@H](n%11cnc%12c(N)ncnc%12%11)C%10)O[C@@H](n%10cc(C)c(=O)[nH]c%10=O)C9)O[C@@H](n9cc(C)c(=O)[nH]c9=O)C8)O[C@@H](n8cc(C)c(=O)[nH]c8=O)C7)O[C@@H](n7cc(C)c(=O)[nH]c7=O)C6)O[C@@H](n6cc(C)c(=O)[nH]c6=O)C5)O[C@@H](n5cnc6c(=O)[nH]c(N)nc65)C4)O[C@@H](n4cc(C)c(=O)[nH]c4=O)C3)O[C@@H](n3cnc4c(=O)[nH]c(N)nc43)C2)O[C@@H](n2cnc3c(=O)[nH]c(N)nc32)C1 (some centres unmarked) | Kaposi's sarcoma-associated herpesvirus | flow cytometry | BCBL1 cells | 8 µM, with: TPA | – | RTA-positive cells | ~7%
CS(=O)(=O)NC(=O)NCc1cc(-c2ccc(Br)cc2)oc1-c1ccncc1 | Mycobacterium tuberculosis | OD600 | cyd deletion mutant | – | – | MIC | 0.12 µM (≈ 0.054 µg/mL)

For quick reference, copied from above:
Structure (SMILES) | organism | test | system | conditions | how to read | endpoint | value
N=C(N)NCCC[C@H](NC(=O)[C@H](CCCNC(=N)N)NC(=O)[C@H](Cc1c[nH]c2ccccc12)NC(=O)[C@H](Cc1c[nH]c2ccccc12)NC(=O)[C@H](CCCCN)NC(=O)[C@H](Cc1c[nH]c2ccccc12)NC(=O)[C@H](Cc1c[nH]c2ccccc12)NC(=O)[C@H](CCCNC(=N)N)NC(=O)[C@@H](N)CCCCN)C(N)=O | Bacillus anthracis | – | 34F2 Sterne, LB medium | 24 h, 37 °C | – | MIC | 80 µM (≈ 119 µg/mL)
NC12CC3CC(CC(C3)C1)C2 | Influenza A virus | viral replication | MDCK, A/Swine/Iowa/13-0505/2010 (H3N2) | – | – | EC50 | < 1 µM
